Experimental data pooled from the literature.
Parts stem from different laboratories: compare values within a part only. Changes are numbered by the printed parent chain.

Series 1 — method: protein binding microarray; molecule type: double-stranded DNA, one strand shown; sample: in vitro; tested at: not given; baseline: not given; reading: higher = stronger binding; quantity: E-score
Target: Histone acetyltransferase KAT6A, both winged helices, GST fusion (KAT6A, Homo sapiens, UniProt Q92794, residues 1-181)
Setting: 8-mer, flanks averaged, mean of 2 arrays, mostly near background
Construct (chain): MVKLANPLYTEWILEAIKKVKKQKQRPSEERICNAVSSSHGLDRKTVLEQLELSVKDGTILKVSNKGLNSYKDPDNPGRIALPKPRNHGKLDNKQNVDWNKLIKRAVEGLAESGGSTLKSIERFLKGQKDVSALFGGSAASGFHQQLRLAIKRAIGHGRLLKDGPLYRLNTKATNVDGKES
CCATTAAA: -0.0802
CCCGGTAG: 0.201
GGCTCTAC: 0.0175
GTATGGTA: -0.0473
AGTGCGGA: 0.199
ATAGGCCG: 0.172
GCGGAGAA: 0.177
GTTGGTCA: -0.0866
ACTCCGAT: 0.013
CATCCAGG: -0.093
GACTGTGC: 0.0745
ACACGAGG: -0.245
GCTACCCC: -0.0694
AAAGGTAC: -0.0825
AAACAGTA: -0.0471
AACAACTT: -0.0209
CACCCACA: -0.118
CCCGAAGA: -0.022
ATGATTAG: -0.0474
GCATCGGC: 0.179

Series 2 — method: DHFR PCA, deep sequencing; sample: yeast; added: (+)-ABA 4.8 µM; baseline: wild-type fitted maximum; reading: higher = stronger binding; quantity: relative binding score
Target: ABI1, truncated, D143A, DHFR fusion (Arabidopsis thaliana)
Setting: methotrexate growth selection, single substitutions
Starting sequence: PYL1, truncated, DHFR fusion (Arabidopsis thaliana); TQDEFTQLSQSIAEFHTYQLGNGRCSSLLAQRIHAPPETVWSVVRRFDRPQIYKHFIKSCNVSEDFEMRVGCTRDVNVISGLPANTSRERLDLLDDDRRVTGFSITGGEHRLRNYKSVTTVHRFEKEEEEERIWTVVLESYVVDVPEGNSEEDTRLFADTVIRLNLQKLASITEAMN; partner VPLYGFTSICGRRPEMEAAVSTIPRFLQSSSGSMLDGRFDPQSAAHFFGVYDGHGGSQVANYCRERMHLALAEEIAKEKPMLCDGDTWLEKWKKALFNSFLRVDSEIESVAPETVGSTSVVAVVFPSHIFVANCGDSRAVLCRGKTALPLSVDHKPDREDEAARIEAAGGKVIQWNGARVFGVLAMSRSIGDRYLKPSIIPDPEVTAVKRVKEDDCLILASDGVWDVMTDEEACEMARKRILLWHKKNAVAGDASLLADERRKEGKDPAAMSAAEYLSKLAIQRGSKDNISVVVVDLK
L20S: 76.5%
R111T: -7.17%
N61V: 79.5%
L169V: -8.64%
Q19M: 52.5%
L112M: 45%
P146N: 1.43%
D65T: 62.3%
L82Q: 3.31%
A35I: -5.3%
R24D: 18.4%
K54R: 16.7%
G148H: 20.8%
G148V: 4.5%
G107I: -6.91%
N149S: 66.6%

Series 3 — target: BATF3, bZIP domain (human); method: DHFR protein complementation; sample: yeast; baseline: wild-type JUN-FOS pair; reading: higher = stronger binding; quantity: binding fitness
Setting: single substitutions, most at no-binding floor
Starting sequence: JUN, bZIP domain (human); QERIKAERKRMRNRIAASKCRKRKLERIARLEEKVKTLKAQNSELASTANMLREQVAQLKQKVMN; partner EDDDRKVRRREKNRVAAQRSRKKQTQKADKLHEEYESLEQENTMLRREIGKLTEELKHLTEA
Q55T: 0.0635 natural log
Q41D: 0.14 natural log
S47A: 0.221 natural log
E54L: 0.0933 natural log
A29L: 0.0638 natural log
L38F: 0.0304 natural log
V56G: -0.313 natural log
V56M: 0.135 natural log
K39C: 0.0772 natural log
N42F: -0.249 natural log
E32V: 0.147 natural log
A57T: 0.23 natural log
R53M: 0.0473 natural log
A46I: 0.246 natural log
A46V: 0.193 natural log
T37Q: 0.361 natural log
A46F: 0.176 natural log
K34Q: 0.184 natural log
V35F: 0.0169 natural log
S43G: 0.253 natural log
S47V: 0.321 natural log
A46W: 0.17 natural log
A49R: 0.253 natural log
L31K: 0.17 natural log
L52S: -0.972 natural log

Series 4 — target: CCNE1, cyclin fold, Cln2 fusion (human); method: yeast growth competition, sequencing; sample: yeast; setting: weak parent motif; baseline: not given; reading: higher = stronger binding; quantity: normalised enrichment score
Starting sequence: ORC1 docking peptide (human); PRARKRLELGNLG
PRARKRLELGNLT [G13T]: -0.589
PRARKRLELGFLG [N11F]: 0.703
PRARPRLELGNLG [K5P]: 0.293
PRARCRLELGNLG [K5C]: 0.3
PRARKRLKLGNLG [E8K]: 0.0662
PRARKRLELGRLG [N11R]: 0.634
PRARKRLELGNNG [L12N]: 0.444
PRAGKRLELGNLG [R4G]: 0.38
PRARKRLPLGNLG [E8P]: 0.546
PRARKELELGNLG [R6E]: -0.043
VRARKRLELGNLG [P1V]: -0.338
PRARKRLELMNLG [G10M]: 0.327
PRARKRLELGNSG [L12S]: 0.255
PRARKRLELGNLV [G13V]: 0.29
PRARRRLEFGNLG [K5R L9F]: 6.02
PRARKRLELGNVG [L12V]: 0.307
PRARKRPELGNLG [L7P]: -1.14
PPARKRLELGNLG [R2P]: -0.435
PRARKRLEEGNLG [L9E]: 0.0656
PRAEKRLELGNLG [R4E]: 0.895
PRWRKRLELGNLG [A3W]: 0.506
PRARFRLELGNLG [K5F]: 1.06
PRANKRLELGNLG [R4N]: 0.63

Series 5 — method: aptamer microarray, sandwich; molecule type: DNA with 2'F-ANA; sample: in vitro; tested at: 200 nM; added: Cy3 exosite-II aptamer, 400 nM; reading: higher = stronger binding; quantity: mean fluorescence intensity; sequence: GGTTGGTGTGGTTGG
Target: Prothrombin, mature alpha-thrombin (F2, Homo sapiens, UniProt P00734)
Setting: whole 15-mer aptamer, many near background
2'F-ANA at 2 3 9 10 11 12 13 14 15: 245 a.u.
2'F-ANA at 1 2 3 5 7 8 10 15: 47.3 a.u.
2'F-ANA at 2 3 6 7 8 12 15: 1010 a.u.
2'F-ANA at 3 5 7 8 11 12 13 14: 71.8 a.u.
2'F-ANA at 1 3 13 14: 74.3 a.u.
2'F-ANA at 1 2 4 5 7 8 11 14: 48.1 a.u.
2'F-ANA at 2 3 4 6 7 8 9 10 11 12 13 14 15: 149 a.u.
2'F-ANA at 2 3 9 11 12 15: 1040 a.u.
2'F-ANA at 2 5 7 9 10 11 12 15: 50.8 a.u.
2'F-ANA at 1 4 8 9 12 13 14: 74.8 a.u.
2'F-ANA at 1 2 7 11 12 13 14 15: 63.4 a.u.
2'F-ANA at 5 6 8 14 15: 47.4 a.u.
2'F-ANA at 1 2 4 5 6 8 9 14: 54.1 a.u.
2'F-ANA at 2 4 6 7 9 11 12 15: 331 a.u.
2'F-ANA at 1 4 5 9 11 12 13 14: 53 a.u.
2'F-ANA at 1 5 7 8 9 11 14: 45.6 a.u.
2'F-ANA at 2 4 7 8 9 10 13 14: 68.7 a.u.
2'F-ANA at 2 4 5 7 10 13 15: 85.6 a.u.
2'F-ANA at 3 4 5 6 7 8 13: 115 a.u.
2'F-ANA at 2 3 6 8 9 11 14 15: 329 a.u.
2'F-ANA at 3 5 6 12: 277 a.u.
2'F-ANA at 4 5 6 9 11 12: 104 a.u.
2'F-ANA at 3 4 6 8 9 10 13 15: 181 a.u.
2'F-ANA at 1 4 5 6 8 9 10 14 15: 47.4 a.u.
2'F-ANA at 2 3 4 9 12 15: 913 a.u.

Series 6 — method: protein-binding microarray; molecule type: double-stranded DNA, one strand shown; sample: in vitro; tested at: 250 nM; setting: 60-bp whole probe; added: salmon DNA 0.4 mg/ml; baseline: random background probes; reading: higher = stronger binding; quantity: log fluorescence; all sequences stand within: GCCTAGCAC … GTCTTGATTCGCTTGACGCTGCTG
Target: Interferon regulatory factor 7, full length, phosphomimetic (IRF7, Homo sapiens, UniProt Q92985, residues 1-503, S101K/S471D/S472D/S475D/S476D/S477D/S483D/S484D/S487D)
Target sequence (chain): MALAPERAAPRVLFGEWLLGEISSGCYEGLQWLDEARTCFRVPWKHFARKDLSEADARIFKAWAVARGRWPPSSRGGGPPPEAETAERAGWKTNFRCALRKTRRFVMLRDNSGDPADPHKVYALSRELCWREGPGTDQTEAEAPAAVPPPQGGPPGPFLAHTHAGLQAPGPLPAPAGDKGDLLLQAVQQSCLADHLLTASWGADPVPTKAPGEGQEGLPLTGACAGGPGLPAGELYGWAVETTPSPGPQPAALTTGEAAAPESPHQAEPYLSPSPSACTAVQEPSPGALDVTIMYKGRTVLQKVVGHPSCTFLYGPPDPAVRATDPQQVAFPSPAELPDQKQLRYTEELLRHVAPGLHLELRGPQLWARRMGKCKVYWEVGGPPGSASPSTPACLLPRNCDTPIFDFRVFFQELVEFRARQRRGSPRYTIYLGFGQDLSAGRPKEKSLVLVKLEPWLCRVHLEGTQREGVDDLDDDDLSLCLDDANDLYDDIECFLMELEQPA
TCATTTCTAAATTCCCTACTGTGCTAG: 1.78 z-score
GACGGTATCGGGATCGGGACGTGCTAG: 0.228 z-score
TTAGGGCTGGGTCTCGGTTAGTGCTAG: -0.0859 z-score
TTAGGTATCCGTTTCGGTTAGTGCTAG: 4.26 z-score
CACGGACTGGGACTGGGGACGTGCTAG: -0.434 z-score
TTGGATCTCAGACTGGATTAGTGCTAG: -0.0848 z-score
TTAGGTATCGGGTTTCGATTAGTGCTA: 7.3 z-score
GACGATATCAGGTTTCGAGACGTGCTA: 3.58 z-score
TCACAGTTTAATATCTAACTGTGCTAG: 0.202 z-score
TTAGATCTCAGTATCTATTAGTGCTAG: 0.312 z-score
GAAGGTATCGGTATCGGGACGTGCTAG: 1.34 z-score
TTAGGTTCCGGTTTCGGTTAGTGCTAG: 10.9 z-score
GAACATTTCCTTTACATTCCGTGCTAG: 1.11 z-score
GACGGTATCCTTATCCCGACGTGCTAG: 0.301 z-score
GACGGTTTCGGACCGGGGACGTGCTAG: 2.37 z-score
GACGATATCAGTTTCTAGACGTGCTAG: 1.21 z-score
CATCCGTTTCTTCTAGACTTGTGCTAG: 1.49 z-score
TTAGGATTGGACTTTCGGTTAGTGCTA: 0.509 z-score
GACGGACTGGGTCTCAGGACGTGCTAG: -0.531 z-score
TTAGAACTCAGTTTCGATTAGTGCTAG: 8.83 z-score
TTAGGACAGGGTTTCGGTTAGTGCTAG: 6.69 z-score
TTAGAACTGAGACTGGAGTAGTGCTAG: -0.385 z-score

Single results of other studies
PhoQ, residues 284 288 289 292 302 303 NLGVHL — fold induction (PhoP, residues 12 14 15 18 19 GHCSL (Escherichia coli, UniProt P23836); Sort-seq, measured: YFP reporter; E. coli; PhoQ-PhoP variant library, added: 10 µM Mg2+; baseline: high Mg2+ state, higher = stronger signaling): 0.878
